Measurements from different studies.
Each numbered part is a random draw from the data of one study; scales do not carry over between parts. Positions count from the first letter of the parent shown.
Sequence of UniProt Q9BUB5 (whole entry, looked up): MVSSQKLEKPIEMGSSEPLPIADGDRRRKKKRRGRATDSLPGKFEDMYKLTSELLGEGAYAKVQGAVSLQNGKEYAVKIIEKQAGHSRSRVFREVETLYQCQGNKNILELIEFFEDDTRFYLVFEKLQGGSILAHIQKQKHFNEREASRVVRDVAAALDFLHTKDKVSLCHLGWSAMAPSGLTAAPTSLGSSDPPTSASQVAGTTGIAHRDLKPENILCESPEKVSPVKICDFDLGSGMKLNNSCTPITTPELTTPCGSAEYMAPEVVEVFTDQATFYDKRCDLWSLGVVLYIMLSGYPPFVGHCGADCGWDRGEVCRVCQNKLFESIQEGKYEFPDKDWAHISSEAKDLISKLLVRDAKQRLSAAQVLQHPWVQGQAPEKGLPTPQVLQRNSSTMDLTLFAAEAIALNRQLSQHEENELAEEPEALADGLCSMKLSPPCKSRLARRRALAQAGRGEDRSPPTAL

Sample 1
Target: Fragile X messenger ribonucleoprotein 1, C-terminal low-complexity region (Fmr1, Mus musculus, UniProt P35922)
Technique: RNA Bind-n-Seq
Molecule type: RNA
Sample: in vitro
Concentration: 200 nM
Setting: whole 134-nt RNA, ends assumed
Added: 150 mM LiCl
Reference: input library
Reading: higher = stronger binding
Library: 7-deaza-guanosine replaces G
Shared flanks, not repeated: GGGAGUUCUACAGUCCGACGAUC … UGGAAUUCUCGGGUGUCAAGG
Oligonucleotide	log2 enrichment
AAGUCCUGUGCUACACAUCGUAUGUACCGAAUCGGAGGAAAAAAAGGUUUUUUUGGAAAGUAUUAUGUUACGCCGUUCGGAUCUGCACUU	-2.18
UGGCCCUGGUGGCAUGCGGGGAGGAAGAGGUGGCCUCAUGGAUCGUGGUGGUCCCGGUGGAAUGUUCAGAGGUGGGCGUGGUGGAGACAG	-0.142
CCUCAAGUCCUGUGCUACACAUCGUAUGUACCGAAUCGGGUGGGGUGGGGUGGAAAGUAUUAUGUUACGCCGUUCGGAUCUGCACUUCCA	-1.47
CUGUGCUACACAUCGUAUGUACCGAAUCGGGGUUUUUUUGGGGUUUUUUUGGUUUUUUUGGGAAAGUAUUAUGUUACGCCGUUCGGAUCU	1.08
CCUCAAGUCCUGUGCUACACAUCGUAUGUACCGAAUCGGGUGGGUGGGAGGGAAAGUAUUAUGUUACGCCGUUCGGAUCUGCACUUCCAG	0.0872
UUGUUUGAAACAGCAACGCUUCGGUCAGGGUAUCUUUUACCAGACACUAAAGCAUAUGGAGAUAGAAUAGAAAGAAUGCUUCGCCUCAGU	-2.2
UCAAGUCCUGUGCUACACAUCGUAUGUACCGAAUCGGAAAGGGGAAAGGGAAAGGAAAGUAUUAUGUUACGCCGUUCGGAUCUGCACUUC	-0.885
UGGCCCUGGUGGCAUGCGGGGAGGAAGAGGUGGCCUCAUGGAUCGUGGUGGCCCCGGUGGAAUGUUCAGAGGUGGCCGUGGUGGAGACAG	-0.633

Sample 2
Target: RING finger protein unkempt homolog, zinc fingers 1-6, GST-SBP tag (UNK, Homo sapiens, UniProt Q9C0B0, residues 30-357)
Sequence of UniProt Q9C0B0 (30-357, looked up): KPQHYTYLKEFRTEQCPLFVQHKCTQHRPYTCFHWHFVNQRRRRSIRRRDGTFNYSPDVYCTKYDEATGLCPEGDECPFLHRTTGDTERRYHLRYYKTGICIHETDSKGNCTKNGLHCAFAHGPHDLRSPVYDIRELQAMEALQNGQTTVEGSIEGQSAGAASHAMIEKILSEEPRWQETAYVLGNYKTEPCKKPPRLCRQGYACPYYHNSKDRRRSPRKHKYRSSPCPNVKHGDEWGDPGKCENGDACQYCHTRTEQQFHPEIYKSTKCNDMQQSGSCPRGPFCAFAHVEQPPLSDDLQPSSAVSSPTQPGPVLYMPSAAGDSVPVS
Technique: RNA Bind-n-Seq
Molecule type: RNA
Sample: in vitro
Concentration: not given
Setting: RNA with constant flanks, human-mouse chimeric sites, ends assumed
Reference: input RNA pool
Reading: higher = stronger binding
Shared flanks, not repeated: GGGAGUUCUACAGUCCGACGAUC … CAACAGAGGAUUGAGCAUCA
Oligonucleotide	bound/input enrichment [ratio]
CGGAGCCCUCCUCUCCCACAGGCCCAAGAUAUAACCCACCAGUGCCUUUUGUCUUCCCGUUAGCUUUGUCAAUCACGCCUGUCCUCUCACGCCCACACCAAGUGCCCCCACCCCUAAGGG	8.64
AUAAAGGCCAUGUUGAGUGGUCCAGGUCAGUUUGCUGAGAAUGAAACCAAUGAGGUCAAUUUUAGAGAGAUCCCCUCACAUGUGCUAUCAAAAGUGUGCAUGUAUUUUACCUACAAGGUC	0.141
CUAGCAGUCCAGCAGCUAGAAGGAGCCUUGAGACAAACACUCCACACACAGGGAAGGCGAUAACAUUGUAAAUUGGUUUACAUUUUUUCCCCCUGUGGAUUUUUCUAGAGGUCAUAGUGC	0.737
GCUCCUCCCCGCUCUGCAGCCUGGGGACUUUUGGCAAGGACCAGAAUCCAGCUUUCUUUUAAAACUCUCAGUGUAACUGUAUCCCGUGACAUUUCAUUUUUUUUAAAAGAAAAAAACUUU	0.3
AAGGUGAUGACUAUGUUUGUCCAACGACAGGUAUUUUCGGAGAGCAAAGAUGAGAUUGCGUUAGUCCUCUAUGGCACAGAUGGCACUGAUAAUGCCCUUGCUGGCAAGGAUCAGUAUCAG	0.161
GAUCCACAGUGGUCUGAGGAGCAACUCAUUGCUGCAAAAUUUUGCUUUGCUGGACUUGUUAUAGGGCAGACUGAAGUGGACAUCAUGAGUCAUGCCACACAAGCUAUUUUUGAAAUUCUG	0.273
AAAGCCCUUGAAGAAAAAAAAAACUCGAACAGAUUUGACAAGGGUAGCCAGCUUGGAGUCUAGCAAUUUGCCAAUGUGUUUACCAAUCUGGGGGCUUGUUUUUCUUUUCUUCUUUCAAAU	0.767
AGAUAUUAAGUAUUUUGAAAAAACUCGAACAGAUUUGACAAGGGUAGCCAGCUUGGAGUCUAGCAACUUGCCAAUGUGUUUACCAAUUUUGGGGGCUGUUUUUCUUUUCUUCUUUCAAAU	0.391

Sample 3
Target: CCNB3, cyclin fold, Cln2 fusion (human)
Technique: yeast growth competition, sequencing
Sample: yeast
Setting: strong parent motif
Reference: not given
Reading: higher = stronger binding
Starting sequence: BRCA2 docking peptide (human); PSIKRNLLNEFDR; partner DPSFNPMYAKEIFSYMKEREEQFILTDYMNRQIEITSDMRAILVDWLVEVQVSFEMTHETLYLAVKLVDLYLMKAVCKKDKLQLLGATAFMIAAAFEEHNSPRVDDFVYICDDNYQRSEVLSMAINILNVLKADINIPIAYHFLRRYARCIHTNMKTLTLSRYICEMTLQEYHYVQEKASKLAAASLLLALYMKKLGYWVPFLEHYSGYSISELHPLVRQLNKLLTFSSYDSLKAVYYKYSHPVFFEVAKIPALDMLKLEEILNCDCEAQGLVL
Variant	normalised enrichment score
L8V	0.564
R13F	0.721
N9V	1.26
S2A	1.07
F11K	0.231
F11V	0.28
L8Q	0.433
I3Y	0.721

Further values, each from its own experiment
Compound	target	effect on	action	concentration	reference	endpoint	value
c1ccc(-c2[nH]ncc2-c2ccnc3ccccc23)nc1	MAP kinase-interacting serine/threonine-protein kinase 1 (MKNK1, Homo sapiens, UniProt Q9BUB5)	enzyme activity	inhibitor	0.5 µM	control	remaining activity	75.9%
